Results of several laboratories.
Numbered parts are unrelated; each lists some results of a single study.

Set 1 — method: RNA Bind-n-Seq; form: RNA; matrix: in vitro; tested at: 365 nM; baseline: no-protein control; reading: higher = stronger binding
Target: RNA binding protein fox-1 homolog 2, RRM domain, GST-SBP tag (RBFOX2, Homo sapiens, UniProt O43251-10, residues 100-194)
Setting: natural RNA segment, single round, ends assumed
Construct (chain): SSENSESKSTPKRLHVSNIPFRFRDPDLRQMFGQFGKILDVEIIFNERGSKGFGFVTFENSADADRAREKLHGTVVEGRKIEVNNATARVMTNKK
| Oligonucleotide | RBNS enrichment (R) |
| --- | --- |
| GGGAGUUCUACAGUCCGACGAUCAUAAAUAGAGGGAAACUUGGAUGCUAAAAUUACAUGAAUAGGAAUCUUCCUGGCACUUAGUGUUUCUAUGUUAUUGAAAAAUGAUGUUCCAGAAAGAUUACUUUUUUCCUUGGAAUUCUCGGGUGCCAA | 0.428 |
| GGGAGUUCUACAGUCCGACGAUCUGGCUUGGUGCUCAAAGGCACUUGCUGCUCUUGCAGAAGGCCAAAAGAUGUGAUUUAGUUCCUAGCCCAUCAGGCAGCUCACAGCCACAUGACUAUAACUCUAGACCCAGUGGAAUUCUCGGGUGCCAA | 0.213 |
| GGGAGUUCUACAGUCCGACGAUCCAUCCAUCAGUCUCCUCACUGCUCCUGUGCGCAGGGCUGUCCCUCCCACACUCCCUUCCAGGCCGUGGCCUUCGCUUCCUCAUUAGAAUCAGGAGAGUGAGGCACAGUGUUGGAAUUCUCGGGUGCCAA | 0.355 |
| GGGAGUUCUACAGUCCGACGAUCACCUGUACAAGAGACCCGGCCACUCCACUCCCUCCUGUGACCUGGACCUCUCCCUGACUUCCUAACACUUAUUAAUUUAUGAAACUGUUUUUCUCAGCGCAGUUUUGUUCUGGAAUUCUCGGGUGCCAA | 0.907 |
| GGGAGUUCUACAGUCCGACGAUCUGUAAAUUAUUUUGUAUCUGAGAUACCAGUUCCAUUCCCACAUAUGAAAGUAUAAAGGUUUCCUUGUGUUUUUCUGUGAGUGAACAUUUUGUAAUAAAUUAACAAGUUUGUGGAAUUCUCGGGUGCCAA | 0.391 |
| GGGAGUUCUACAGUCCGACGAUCAUUUGAGAGUUUGAGGAACUGAAACGUGUUGUGUUCAAGCAGCCUGGUGGCUAGUGCCUUCAUAUUAGAGCACCUUCUCUGAGGCUGAUUGGUGGGCAGGUAGGGAAGACUGGAAUUCUCGGGUGCCAA | 0.99 |
| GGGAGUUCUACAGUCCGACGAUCCGUCUUACUGAAGAAGUCUUUCCAGCUAGAAAGAUGUUCUGACACUGUCUGAUCGUGAAGCACCUGAAUUUACAGAAGAUGCAGAAAGCCUCGUUUUCUCUGCGUGGUUCUGGAAUUCUCGGGUGCCAA | 0.179 |
| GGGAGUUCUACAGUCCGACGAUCCCUCGUGUUGAGGUUCCAGACUUAGAAACAGACCCCUCUGUACAGGGGGAUUGUGGUGAGUGAGAAUCAAGGCCACCUUGUGUGUUUUCUCACUCUCGAAUGCAAGUGGGUGGAAUUCUCGGGUGCCAA | 1.86 |

Set 2 — method: protein binding microarray; form: double-stranded DNA, one strand shown; matrix: in vitro; tested at: not given; baseline: not given; reading: higher = stronger binding
Target: Histone acetyltransferase KAT6A, both winged helices, GST fusion (KAT6A, Homo sapiens, UniProt Q92794, residues 1-181)
Setting: 8-mer, flanks averaged, mean of 2 arrays, mostly near background
Target sequence (chain): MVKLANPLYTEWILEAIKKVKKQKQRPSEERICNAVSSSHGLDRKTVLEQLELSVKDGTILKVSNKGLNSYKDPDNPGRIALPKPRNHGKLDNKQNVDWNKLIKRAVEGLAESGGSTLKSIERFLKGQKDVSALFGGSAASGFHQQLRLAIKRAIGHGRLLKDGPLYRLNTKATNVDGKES
| Oligonucleotide | E-score |
| --- | --- |
| GACCCTCA | -0.243 |
| CGTATCTA | 0.041 |
| GCGCGAGC | 0.276 |
| CATAAATG | -0.0924 |
| GGAGGGGA | -0.0612 |
| AGGTCAAT | -0.168 |
| ATTAATAG | -0.147 |
| ATCTATAA | 0.00556 |
| GACACAGC | 0.014 |
| AAATGGGA | -0.235 |
| AGGCGACT | -0.046 |
| AACCTGGA | -0.118 |
| AAATCCGC | 0.243 |
| TCCCAAGA | -0.152 |
| CCTGCCCC | -0.179 |
| CGTATTGC | 0.155 |
| ATAACTAC | 0.0244 |
| AACATGCA | -0.0855 |
| CGAAATCA | -0.0297 |
| ATATGACG | 0.0623 |
| ATTCCCTG | -0.197 |
| ATGCTTGC | -0.00507 |
| AAGGCGCT | 0.247 |
| GCCGGACA | 0.232 |
| GGGCTACC | -0.0793 |

Set 3 — method: aptamer microarray, sandwich; form: DNA with 2'F-ANA; matrix: in vitro; tested at: 200 nM; together with: Cy3 exosite-II aptamer, 400 nM; reading: higher = stronger binding; oligonucleotide: GGTTGGTGTGGTTGG
Target: Prothrombin, mature alpha-thrombin (F2, Homo sapiens, UniProt P00734)
Setting: whole 15-mer aptamer, many near background
| Modification | mean fluorescence intensity |
| --- | --- |
| 2'F-ANA at 5 7 8 10 12 | 51.2 a.u. |
| 2'F-ANA at 2 6 7 9 10 11 14 | 85.3 a.u. |
| 2'F-ANA at 1 3 5 7 8 9 11 13 | 54.7 a.u. |
| 2'F-ANA at 1 5 7 | 56 a.u. |
| 2'F-ANA at 1 2 4 5 6 8 12 14 15 | 48.8 a.u. |
| 2'F-ANA at 2 3 5 8 13 | 81.4 a.u. |
| 2'F-ANA at 3 4 7 8 9 10 15 | 361 a.u. |
| 2'F-ANA at 2 3 4 7 8 10 12 13 14 15 | 186 a.u. |
| 2'F-ANA at 1 5 7 9 10 12 14 15 | 142 a.u. |
| 2'F-ANA at 1 5 7 8 11 12 14 | 47.4 a.u. |
| 2'F-ANA at 2 4 10 15 | 101 a.u. |
| 2'F-ANA at 1 5 6 7 10 13 14 | 50.2 a.u. |
| 2'F-ANA at 1 2 4 8 10 11 15 | 48.5 a.u. |
| 2'F-ANA at 1 3 6 10 12 13 | 98.2 a.u. |
| 2'F-ANA at 3 4 5 6 9 15 | 90.9 a.u. |
| 2'F-ANA at 1 4 5 7 8 9 10 11 12 | 58.4 a.u. |
| 2'F-ANA at 2 3 4 6 9 10 14 15 | 160 a.u. |
| 2'F-ANA at 1 2 3 4 6 7 8 11 14 15 | 91.2 a.u. |
| 2'F-ANA at 3 5 8 9 10 12 13 14 | 55.2 a.u. |
| 2'F-ANA at 1 2 4 5 6 14 15 | 64.2 a.u. |
| 2'F-ANA at 6 7 8 9 10 11 12 13 14 15 | 104 a.u. |
| 2'F-ANA at 4 5 6 8 9 10 12 14 15 | 78 a.u. |
| 2'F-ANA at 8 11 12 15 | 719 a.u. |

Set 4 — method: RNA Bind-n-Seq; form: RNA; matrix: in vitro; tested at: 20 nM; setting: 6-mer, flanks averaged, single round; together with: 150 mM LiCl; baseline: input library; reading: higher = stronger binding
Target: TAR DNA-binding protein 43, full length, His tag (TARDBP, Homo sapiens, UniProt Q13148, residues 1-414)
| Oligonucleotide | 6-mer enrichment (R) |
| --- | --- |
| AAAUAU | 0.965 |
| AAUCUA | 0.844 |
| CCUCGC | 0.912 |
| UGCGGC | 1.05 |
| CAUUGA | 0.86 |
| GAGGUU | 1.08 |
| CUGAUA | 0.833 |
| CCUCAG | 0.887 |
| AGGUUG | 1.11 |
| CAGGGA | 0.965 |
| GGGGAA | 1.19 |
| AUAGAC | 0.832 |
| ACUGAG | 0.91 |
| ACAGUU | 0.889 |
| UUACGA | 0.84 |
| AUAGAG | 0.956 |
| GAGAAU | 1.03 |
| AACCCU | 0.952 |
| GUCGGG | 1.22 |
| GCCCAC | 1 |
| ACGGUG | 1.04 |
| ACUUUA | 0.946 |

Set 5 — method: RNA Bind-n-Seq; form: RNA; matrix: in vitro; tested at: 1 µM; setting: whole 134-nt RNA, ends assumed; together with: 150 mM KCl; baseline: input library; reading: higher = stronger binding
Target: Ras GTPase-activating protein-binding protein 1, C-terminal RGG region (G3BP1, Homo sapiens, UniProt Q13283)
Sequence of UniProt Q13283 (whole entry, looked up): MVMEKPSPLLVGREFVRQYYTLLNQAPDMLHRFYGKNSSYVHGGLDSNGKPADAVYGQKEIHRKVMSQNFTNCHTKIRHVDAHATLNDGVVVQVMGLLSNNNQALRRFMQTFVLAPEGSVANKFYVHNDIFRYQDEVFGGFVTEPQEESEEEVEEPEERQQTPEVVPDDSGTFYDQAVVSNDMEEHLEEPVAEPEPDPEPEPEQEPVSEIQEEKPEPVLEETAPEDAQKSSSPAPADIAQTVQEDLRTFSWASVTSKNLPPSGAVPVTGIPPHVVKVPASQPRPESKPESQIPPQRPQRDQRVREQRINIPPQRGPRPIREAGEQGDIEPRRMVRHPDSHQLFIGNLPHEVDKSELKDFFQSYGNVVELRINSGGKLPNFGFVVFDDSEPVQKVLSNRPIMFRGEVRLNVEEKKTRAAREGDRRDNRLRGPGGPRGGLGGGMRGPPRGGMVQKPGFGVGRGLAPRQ
| Oligonucleotide | log2 enrichment |
| --- | --- |
| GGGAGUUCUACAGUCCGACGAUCAAGUCCUGUGCUACACAUCGUAUGUACCGAAUCGGGGCCCCGGGCCCCGGCCCCGGGAAAGUAUUAUGUUACGCCGUUCGGAUCUGCACUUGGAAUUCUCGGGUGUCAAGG | -1.78 |
| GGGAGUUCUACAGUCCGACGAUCAGUCCUGUGCUACACAUCGUAUGUACCGAAUCGGGUGGGUUUUUUUGGGUUUUUGGGAAAGUAUUAUGUUACGCCGUUCGGAUCUGCACUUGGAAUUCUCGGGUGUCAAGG | -0.406 |
| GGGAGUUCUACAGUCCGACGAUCUGGGAGGUGGAUUUUGUUUAUUUUUUUAGCUCAUUUCCAGGGGUGGGAAUUUUUUUUUAAUAUGUAUCAUGAAUAAAGUUGUUUUUGAAAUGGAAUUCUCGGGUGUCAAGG | 3.3 |
| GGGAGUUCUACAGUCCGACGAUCCUCAAGUCCUGUGCUACACAUCGUAUGUACCGAAUCGGAAAAAGGUUUGGUGGAAAGUAUUAUGUUACGCCGUUCGGAUCUGCACUUCCAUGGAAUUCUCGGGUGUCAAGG | -1.23 |
| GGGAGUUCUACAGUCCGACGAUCCAAGUCCUGUGCUACACAUCGUAUGUACCGAAUCGGCCCCGGCCCCGGGGCCCCGGAAAGUAUUAUGUUACGCCGUUCGGAUCUGCACUUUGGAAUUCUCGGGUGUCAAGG | -1.84 |
| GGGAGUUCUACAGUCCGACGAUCUGUGCUACACAUCGUAUGUACCGAAUCGGGGAAAAAAAGGGGAAAAAAAGGGGAAAAAGGGGAAAGUAUUAUGUUACGCCGUUCGGAUCUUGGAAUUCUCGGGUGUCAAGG | 0.166 |
| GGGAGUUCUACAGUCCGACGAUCAAGUCCUGUGCUACACAUCGUAUGUACCGAAUCGGGGUUUGGGGUUUGGGUUUGGGAAAGUAUUAUGUUACGCCGUUCGGAUCUGCACUUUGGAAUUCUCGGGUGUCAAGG | 1.68 |
| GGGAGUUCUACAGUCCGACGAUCCUCAAGUCCUGUGCUACACAUCGUAUGUACCGAAUCGGGCCGGGGCCGGGCCGGAAAGUAUUAUGUUACGCCGUUCGGAUCUGCACUUCCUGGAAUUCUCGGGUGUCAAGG | -1.63 |
| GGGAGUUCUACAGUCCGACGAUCUGGCCCUGGUGGCAUGCGGUGAGGAAGAGGUGGCCUCAUGGAUCGUGGUGGUCCCGGUGGAAUGUUCAGAGGUGGCCGUGGUGGAGACAGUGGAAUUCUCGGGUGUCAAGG | 1.72 |

A few entries again (set 3):
| Modification | mean fluorescence intensity |
| --- | --- |
| 2'F-ANA at 1 5 7 8 11 12 14 | 47.4 a.u. |
| 2'F-ANA at 2 4 10 15 | 101 a.u. |
| 2'F-ANA at 1 5 6 7 10 13 14 | 50.2 a.u. |
| 2'F-ANA at 1 2 4 8 10 11 15 | 48.5 a.u. |
| 2'F-ANA at 1 3 6 10 12 13 | 98.2 a.u. |
| 2'F-ANA at 3 4 5 6 9 15 | 90.9 a.u. |
| 2'F-ANA at 1 4 5 7 8 9 10 11 12 | 58.4 a.u. |
| 2'F-ANA at 2 3 4 6 9 10 14 15 | 160 a.u. |
| 2'F-ANA at 1 2 3 4 6 7 8 11 14 15 | 91.2 a.u. |
| 2'F-ANA at 3 5 8 9 10 12 13 14 | 55.2 a.u. |
| 2'F-ANA at 1 2 4 5 6 14 15 | 64.2 a.u. |
| 2'F-ANA at 6 7 8 9 10 11 12 13 14 15 | 104 a.u. |
| 2'F-ANA at 4 5 6 8 9 10 12 14 15 | 78 a.u. |
| 2'F-ANA at 8 11 12 15 | 719 a.u. |
